Measured values collected from several papers.
± gives the spread as reported. ≈ marks a conversion by molar mass, not a printed value.

| Compound | test | test system | setting | how to read | quantity | result |
| --- | --- | --- | --- | --- | --- | --- |
| CC(C)[C@H](NC(=O)CNC(=O)[C@H](CCC(N)=O)NC(=O)[C@H](C)N)C(=O)O | – | healthy male volunteers | intravenous, 15 mg/kg/h, 2 h, together with: LPS 2 ng/kg | – | discontinuation due to AE | 0% |
| C=C1C(=O)O[C@@H]2C[C@H](C)[C@@H]3C[C@H](O[Si](C)(C)C(C)C)[C@H](O[Si](C)(C)C(C)C)[C@@]3(C)C[C@H]12 | propidium iodide flow cytometry | primary splenocytes, BALB/c mouse | 48 h, 10% fetal calf serum | – | CC50 | 37.7 ± 0.5 µg/mL (≈ 80.8 µM) |
| COc1ccc2sc3c(c2c1)SCCNC3=O | – | mouse, plasma | iv, 25 mg/kg | – | clearance | 121 mL/min/kg |
| CC[C@H](C)[C@H](NC(=O)[C@H](CC(=O)O)NC(=O)[C@H](CO)NC(=O)[C@H](CCC(N)=O)NC(=O)[C@H](C)NC(=O)[C@H](CC(=O)O)NC(=O)[C@H](CCC(=O)O)NC(=O)[C@H](Cc1c[nH]cn1)NC(=O)[C@H](Cc1ccc(O)cc1)NC(=O)[C@H](C)NC(=O)[C@H](CC(=O)O)NC(=O)[C@H](CCC(=O)O)NC(=O)[C@H](Cc1c[nH]cn1)NC(=O)[C@H](Cc1ccc(O)cc1)NC(=O)[C@H](C)NC(=O)[C@H](CC(=O)O)NC(=O)[C@H](CCC(=O)O)NC(=O)[C@H](Cc1c[nH]cn1)NC(=O)[C@H](Cc1ccc(O)cc1)NC(=O)[C@H](C)NC(=O)[C@H](CC(=O)O)NC(=O)[C@H](CCC(=O)O)NC(=O)[C@H](Cc1c[nH]cn1)NC(=O)[C@H](Cc1ccc(O)cc1)NC(=O)[C@H](C)NC(=O)[C@H](CC(=O)O)NC(=O)[C@H](CCC(=O)O)NC(=O)[C@H](Cc1c[nH]cn1)NC(=O)[C@@H](N)Cc1ccc(O)cc1)C(=O)N[C@H](C(=O)N[C@@H](C)C(=O)N[C@@H](Cc1c[nH]cn1)C(=O)N[C@@H](CC(C)C)C(=O)N[C@@H](CC(C)C)C(=O)O)C(C)C | – | mouse, SN model | dose not given | – | MPV | 7.4 ± 0.7 fL |
| [2H]C([2H])([2H])C([2H])([2H])C([2H])([2H])OC(C(=O)OC1CCNCC1)(c1ccccc1)c1ccccc1 | item: oropharyngeal pain | healthy Japanese male | oral, 15 mg once daily, 16 days | – | adverse drug reactions | 0% |
| CSCC[C@@H]1NC(=O)[C@@H]2CSSC[C@H](NC(=O)[C@H](CO)NC(=O)[C@H](C)N)C(=O)N[C@@H](CCCNC(=N)N)C(=O)N[C@@H]([C@@H](C)O)C(=O)N3CCC[C@H]3C(=O)N[C@@H](CCCCN)C(=O)N[C@@H](CC(=O)O)C(=O)N[C@H]3CSSC[C@H](NC(=O)[C@H](CCCCN)NC(=O)[C@H](CCCNC(=N)N)NC(=O)[C@H](CC(N)=O)NC1=O)C(=O)N[C@@H](CCCCN)C(=O)N[C@H]1CSSC[C@H](NC(=O)[C@@H]4CCCN4C(=O)[C@H](CC(=O)O)NC(=O)[C@H](C)NC3=O)C(=O)N[C@@H](C)C(=O)N[C@@H](CCCCN)C(=O)N[C@@H](CCC(=O)O)C(=O)N[C@@H]([C@@H](C)O)C(=O)NCC(=O)N[C@@H](CSSC[C@@H](C(N)=O)NC(=O)[C@H](CCCNC(=N)N)NC(=O)[C@H](CC(N)=O)NC1=O)C(=O)N1CCC[C@H]1C(=O)N[C@@H](Cc1ccc(O)cc1)C(=O)NCC(=O)N[C@@H](CCCCN)C(=O)N2 | – | DA rat pristane-induced arthritis, serum | subcutaneous, 0.1 mg/kg single dose at onset, 21 days | – | Calcium | 9.36 mg/dL |
| O=S(=O)(O)C(F)(F)C(F)(F)OC(F)(C(F)(F)F)C(F)(F)OC(F)C(F)(F)F (centres unmarked) | – | human, exposed residents, serum | May 2018, 11 months after discharge | – | median concentration | 2.47 ng/mL |
| CCOC(=O)[C@@H]1Cc2c(cc([N+](=O)[O-])cc2[N+](=O)[O-])[C@H](O)[C@]12C(=O)Nc1ccc(Br)cc12 | – | Sprague-Dawley rat, plasma | intravenous, 7.5 mg/kg | – | Vd | 7.36 L/kg |
| O=C(Cc1ccc2ccccc2c1)N[C@H](Cc1ccccc1)C(=O)N[C@H](Cc1ccc(O)cc1)C(=O)N[C@H](Cc1ccccc1)C(=O)N[C@H](Cc1ccc(OP(=O)(O)O)cc1)C(=O)O | substrate | HepG2 cell lysate | 500 µM, 1 h, pH 7.4, 37 °C | – | dephosphorylation | < 5% |
| O=c1cc(-c2ccccc2)oc2c(Br)c(O)c(O)c(O)c12 | – | C57BL/6 mouse, plasma | po, 150 mg/kg | – | Ctrough | 53.9 ± 54 ng/mL |
| CN[C@](C)(C[18F])C(=O)O | – | mouse, bone | 2 h, tumour-bearing | – | tracer uptake | 2 %ID/g |
| C#Cc1c(F)ccc2cc(O)cc(-c3ncc4c(N5CC6CCC(C5)N6C(=O)/C(C)=C(/C)C(=O)OCCCC)nc(OC[C@@]56CCCN5C[C@H](F)C6)nc4c3F)c12 | metabolic stability | mouse, liver microsomes | 1 µM, pH 7.4 | – | half-life | 0.595 h |
| CCN(CC)CCOc1ccc(-c2nnn(Cc3ccc(OC)cc3)c2N)cc1 | – | Beagle dog | oral, 4 weeks daily | – | NOAEL | 80 mg/kg |
| CCN(Cc1ccccc1)C(=O)CCc1nc(CN2CCN(C(=O)Cc3ccc(OC)c(OC)c3)CC2)no1 | – | rat, plasma | intravenous, 1 mg/kg, 2 h | – | concentration | < 0.25 ng/mL |
| [11CH3]Oc1ccc(C(=O)Nc2cc(-c3ccc(I)cc3)no2)cc1 | – | mouse, brain | intravenous, 20 min | – | parent compound fraction | 67 ± 6% |
| CC(C)[C@H](NC(=O)CNC(=O)[C@H](CCC(N)=O)NC(=O)[C@H](C)N)C(=O)O | – | human | intravenous infusion, 90 mg/kg/h, 2 h, relatedness Possibly | relative to: subjects | drug-related adverse events | 0% |

| Compound | test | test system | setting | how to read | quantity | result |
| --- | --- | --- | --- | --- | --- | --- |
| COC(=O)C[C@](O)(CCCC(C)(C)OC(C)=O)C(=O)O[C@@H]1C(OC)=C[C@]23CCCN2CCc2cc4c(cc2[C@H]13)OCO4 | – | CD1 mouse, bone marrow | oral, 1 mg/kg, 8 h, below quantification limit 1.00 ng/mL | – | tissue concentration | not detected |
| CC[C@H](C)C(=O)N1CCC(NC(=O)Nc2ccc(OC(F)(F)F)c(F)c2)CC1 | – | healthy volunteers | oral, 24 mg single dose | – | subjects with trichomoniasis TEAE | 0% |
| Cc1ccc(OCC(=O)N(Cc2cccs2)c2ccn[nH]2)cc1 | – | CD-1 mouse, both sexes, bone marrow polychromatic erythrocytes | oral, 500, 1000, 2000 mg/kg | – | micronucleus formation | negative |
| O=c1oc2c(O)c(O)ccc2c2cc(O)c(O)cc12 | potentiometric titration | water, extrapolated from methanol/water | 25 °C | – | pKa1 | 6.12 |
| CCNc1cc2[o+]c3cc(NCC)c(C)cc3c(-c3ccccc3C(=O)OCCOCC[18F])c2cc1C | – | rat, skin | 30 min | – | tissue uptake | 0.15 ± 0.02 %ID/g |
| CNC(=O)c1ncn2c(=O)n(C)nnc12 | – | mouse CD-1 male, liver microsomes | 50 µM, 2 h, pH 7.4 | relative to: time zero | remaining compound | 86 ± 1% |
| N=C(N)NCc1ccc(C(=O)NCCCC[C@H](NC(=O)N[C@@H](CCC(=O)O)C(=O)O)C(=O)O)cc1[131I] | – | SCID mouse, PC-3 xenografts, heart | 2 h | – | tissue uptake | 0.4 ± 0.11 %ID/g |
| C/C=C/C=C/C/C=C/CCCCCCCc1cccc(O)c1O | – | female Kunming mice, tumour-bearing, liver | intravenous, 10 mg/kg, 8 h | – | tissue concentration | 10600 ± 1650 ng/g |
| [CH3][Ti+2][O]C(=O)c1ccc([S][Au][PH](c2ccccc2)(c2ccccc2)c2ccccc2)cc1.c1cc[cH-]c1.c1cc[cH-]c1 | – | DMSO/water | 5 × 10 µM | – | pH | 5.13 |
| C[S+]1CC[S+]2CC[P+](CO)(CO)[Re-2]12(=[C]=O)(=[C]=O)=[C]=O.[Br-] (centres unmarked) | – | saturated aqueous human serum albumin | 6 months, 25 °C | – | chemical stability | stable |
| COc1cc2ncnc(Oc3cccc(N[11C](=O)Nc4cc(C(C)(C)C(F)(F)F)on4)c3)c2cc1OC | radio-HPLC | female Balb/c nude mice, urine | intravenous, 30 min | relative to: radioactivity | metabolites in urine | 98% |
| CC1(C)C(=O)N(c2ccc(C#N)c(C(F)(F)F)c2)C(=S)N1c1ccc(C(N)=O)c(F)c1 | – | human, male, plasma | oral, 160 mg, single dose, after high-fat meal | – | MRT | 403 ± 63.1 h |
| CN(C)C(CNC(=O)Nc1cc(C(F)(F)F)ccc1N1CCOCC1)c1ccncc1 (centres unmarked) | – | mouse, serum | intraperitoneal, 360 mg/kg single dose | – | serum sodium | 144 mmol/L |
| CC[C@H](C)[C@@H]1NC(=O)[C@H](CCCCN)NC(=O)[C@H](CCCCN)NC(=O)[C@H](Cc2ccc(O)cc2)NC(=O)[C@H](CC(C)C)NC(=O)[C@@H]2CCCN2C(=O)[C@H](C)NC(=O)CNC(=O)CNC(=O)[C@H](CO)NC(=O)CNC(=O)CNC(=O)[C@H](CO)NC(=O)[C@H](CCC(=O)O)NC(=O)[C@H](CC(C)C)NC(=O)[C@H](CC(C)C)NC(=O)[C@H](CCCCN)NC(=O)[C@H](CCCCN)NC(=O)[C@H]([C@@H](C)CC)NC(=O)[C@H]([C@@H](C)CC)NC(=O)[C@H](CCCCN)NC(=O)[C@H](CCCCN)NC(=O)[C@H](Cc2ccc(O)cc2)NC(=O)[C@H](CC(C)C)NC(=O)[C@@H]2CCCN2C(=O)[C@H](C)NC(=O)CNC(=O)CNC(=O)[C@H](CO)NC(=O)CNC(=O)CNC(=O)[C@H](CO)NC(=O)[C@H](CCC(=O)O)NC(=O)[C@H](CC(C)C)NC(=O)[C@H](CC(C)C)NC(=O)[C@H](CCCCN)NC(=O)[C@H](CCCCN)NC(=O)[C@H]([C@@H](C)CC)NC1=O | hemolysis | uninfected human erythrocytes | 1 h | – | HC10 | 92.7 ± 10.9 µM |
| Cc1ncsc1-c1ccc(CNC(=O)[C@@H]2C[C@@H](O)CN2C(=O)[C@@H](NC(=O)Cc2ccc(-c3ccc(CNC(=O)c4cc5c(cc4CS(C)(=O)=O)-c4cn(C)c(=O)c6[nH]cc(c46)CN5c4ncc(F)cc4F)cc3)cc2)C(C)(C)C)cc1 | – | Sf9 cell culture medium | – | – | kinetic solubility | < 1.56 µM |
| CC1(O)CC23CC(O)C4(O)C(C5OC5C4(C)C)C(C)(O)C2CCC1C3O (centres unmarked) | – | ICR mouse | oral, 7 days | – | LD50 | 3.62 mg/kg |

A few entries again:
| Compound | test | test system | setting | how to read | quantity | result |
| --- | --- | --- | --- | --- | --- | --- |
| Cc1ccc(OCC(=O)N(Cc2cccs2)c2ccn[nH]2)cc1 | – | CD-1 mouse, both sexes, bone marrow polychromatic erythrocytes | oral, 500, 1000, 2000 mg/kg | – | micronucleus formation | negative |
| Cc1ncsc1-c1ccc(CNC(=O)[C@@H]2C[C@@H](O)CN2C(=O)[C@@H](NC(=O)Cc2ccc(-c3ccc(CNC(=O)c4cc5c(cc4CS(C)(=O)=O)-c4cn(C)c(=O)c6[nH]cc(c46)CN5c4ncc(F)cc4F)cc3)cc2)C(C)(C)C)cc1 | – | Sf9 cell culture medium | – | – | kinetic solubility | < 1.56 µM |
| O=c1oc2c(O)c(O)ccc2c2cc(O)c(O)cc12 | potentiometric titration | water, extrapolated from methanol/water | 25 °C | – | pKa1 | 6.12 |
